# Assay results gathered from unrelated publications.
# Lines come from different studies, so protocols differ. Values joined by “and” are separate records of one study, mostly repeats; a detail may differ. ± gives the spread as reported.
# POLB: DNA polymerase beta (POLB, Homo sapiens, UniProt P06746)
# CXCL8: Interleukin-8 (CXCL8, Homo sapiens, UniProt P10145)
# POLB I260M: DNA polymerase beta (POLB, Homo sapiens, UniProt P06746, I260M)
# Eif4e: Eukaryotic translation initiation factor 4E (Eif4e, Mus musculus, UniProt P63073)
SMILES,target,assay,test system,setting,Kd
CC(C)C[C@@H]1NC(=O)CNC(=O)[C@H](CC(N)=O)NC(=O)[C@H](CCCNC(=N)N)NC(=O)[C@H]([C@@H](C)O)NC(=O)[C@@H]2CSSC[C@@H]3NC(=O)[C@H]([C@@H](C)O)NC(=O)CNC(=O)CNC(=O)[C@H](C(C)C)NC(=O)[C@@H]4CSSC[C@H](NC(=O)[C@H]([C@@H](C)O)NC(=O)[C@H](CSSC[C@H](NC(=O)[C@H](C(C)C)NC(=O)[C@@H]5CCCN5C1=O)C(=O)NCC(=O)N[C@@H](CCC(=O)O)C(=O)N[C@@H]([C@@H](C)O)C(=O)N4)NC(=O)CNC(=O)[C@@H]1CCCN1C(=O)[C@H]([C@@H](C)O)NC(=O)[C@H](CC(N)=O)NC3=O)C(=O)N[C@@H](CO)C(=O)N[C@@H](Cc1c[nH]c3ccccc13)C(=O)N1CCC[C@H]1C(=O)N[C@@H](C(C)C)C(=O)N2,POPC/POPE lipid membrane,"membrane binding, surface plasmon resonance",POPC/POPE 80:20 vesicles,pH 7.4,18.2 ± 0.53 µM
Nc1nc2c(ncn2[C@H]2C[C@H](O)[C@@H](COP(=O)(O)OP(=O)(O)[C@@H](F)P(=O)(O)O)O2)c(=O)[nH]1,POLB,"substrate, quench-flow kinetics",,"pH 8.0, 37 °C, misincorporation opposite T in gapped DNA",590 ± 110 µM
CO[C@@H]1[C@H](O)[C@@H](COP(=O)(O)OP(=O)([O-])C(Cl)(Cl)P(=O)(O)OP(=O)(O)OC[C@H]2O[C@@H](n3cnc4c(=O)[nH]c(N)nc43)[C@H](O)[C@@H]2O)O[C@H]1n1c[n+](C)c2c(O)nc(N)nc21,"Eukaryotic translation initiation factor 4E, residues 28-217 (Eif4e, Mus musculus, UniProt P63073)","binding, fluorescence quenching titration",,"pH 7.2, 20 °C",0.0121 µM
CC(=O)N[C@@H]1[C@@H](O[C@@H]2O[C@H](C(=O)O)[C@@H](O[C@@H]3O[C@H](COS(=O)(=O)O)[C@@H](OS(=O)(=O)O)[C@H](O[C@@H]4O[C@H](C(=O)O)[C@@H](OS(=O)(=O)O)[C@H](OS(=O)(=O)O)[C@H]4OS(=O)(=O)O)[C@H]3NC(C)=O)[C@H](OS(=O)(=O)O)[C@H]2OS(=O)(=O)O)[C@H](OS(=O)(=O)O)[C@@H](COS(=O)(=O)O)O[C@H]1SCCOCCOCCSSCCOCCOCCS[C@@H]1O[C@H](COS(=O)(=O)O)[C@@H](OS(=O)(=O)O)[C@H](O[C@@H]2O[C@H](C(=O)O)[C@@H](O[C@@H]3O[C@H](COS(=O)(=O)O)[C@@H](OS(=O)(=O)O)[C@H](O[C@@H]4O[C@H](C(=O)O)[C@@H](OS(=O)(=O)O)[C@H](OS(=O)(=O)O)[C@H]4OS(=O)(=O)O)[C@H]3NC(C)=O)[C@H](OS(=O)(=O)O)[C@H]2OS(=O)(=O)O)[C@H]1NC(C)=O,CXCL8,isothermal titration calorimetry,,"25 °C, protein 10 µM",0.016 µM
Nc1nc2c(ncn2[C@H]2C[C@H](O)[C@@H](COP(=O)(O)OP(=O)(O)[C@@H](Cl)P(=O)(O)O)O2)c(=O)[nH]1,POLB,"substrate, quench-flow kinetics",,"pH 8.0, 37 °C, incorporation opposite C in gapped DNA",11 ± 1 µM
Nc1nc2c(ncn2[C@H]2C[C@H](O)[C@@H](COP(=O)(O)OP(=O)(O)CP(=O)(O)O)O2)c(=O)[nH]1,POLB I260M,"nucleotide binding, substrate, single turnover kinetics",,"37 °C, dG misincorporation opposite A",515 ± 194 µM
Cc1ccc(Oc2nc3cc(-c4ccc5c(ccn5C)c4)c(Cl)cc3[nH]2)cc1C(=O)O,"PRKAA2/PRKAB1, phosphorylated; with gamma1 (Homo sapiens, UniProt P54646+Q9Y478)","binding, circular dichroism titration",,α2β1γ1 complex,0.085 µM
CNc1ccccc1C(=O)O[C@H]1C[C@H](n2cnc3c(N)ncnc32)O[C@@H]1COP(=O)(O)OP(=O)(O)O,"Unconventional myosin-Va (Gallus gallus, UniProt Q02440, D297C/G292C/I296C/S293C/V295G)",stopped-flow FRET,,"10 °C, together with: EDTA 4 mM",6.24 ± 0.61 µM
Cc1cn([C@H]2C[C@H](O)[C@@H](COP(=O)(O)OP(=O)(O)C(Cl)(Cl)P(=O)(O)O)O2)c(=O)[nH]c1=O,POLB,"dNTP binding, substrate, single-turnover kinetics",single-nucleotide gapped DNA,"37 °C, wild type, correct incorporation, together with: dTTP opposite template A",44.7 ± 20.2 µM
CNCCNC(=O)CN1C(=O)Cc2c([nH]c3ccc(Br)cc23)-c2ccc(Cl)cc21,"Trypanothione synthetase (Leishmania infantum, UniProt A4I2Z3)",isothermal titration calorimetry,,together with: glutathione 2 mM,1.9 µM
CC(P(=O)(O)O)P(=O)(O)OP(=O)(O)OCC1OC(n2cnc3c(=O)[nH]c(N)nc32)CC1O (mixture of isomers),POLB,"nucleotide binding, substrate, single turnover kinetics",,"37 °C, dG misincorporation opposite A",57 ± 47 µM
CC[C@H](C)[C@@H]1NC(=O)[C@H](C)NC(=O)[C@H](C)NC(=O)[C@H]([C@@H](C)O)NC(=O)[C@H](Cc2ccccc2)NC(=O)[C@@H]2CSSC[C@@H]3NC(=O)[C@H](C(C)C)NC(=O)[C@H](CCCCN)NC(=O)[C@H](CO)NC(=O)[C@H](C)NC(=O)[C@@H]4CSSC[C@H](NC(=O)[C@H](CO)NC(=O)[C@H](CCC(=O)O)NC(=O)CNC(=O)[C@H](CSSC[C@H](NC(=O)CNC1=O)C(=O)N[C@@H](CO)C(=O)N4)NC(=O)[C@@H]1CCCN1C(=O)[C@H](Cc1ccccc1)NC(=O)CNC(=O)[C@H](CC(N)=O)NC(=O)[C@H](CCCCN)NC(=O)[C@H](Cc1ccc(O)cc1)NC3=O)C(=O)N[C@@H](C(C)C)C(=O)N[C@@H](Cc1ccc(O)cc1)C(=O)N[C@@H](CC(C)C)C(=O)N1CCC[C@H]1C(=O)N2,POPC/POPE lipid membrane,"membrane binding, surface plasmon resonance",POPC/POPE 80:20 vesicles,pH 7.4,5.18 ± 0.81 µM
CC[C@H](C)[C@H](NC(=O)[C@H](Cc1ccc(O)c(I)c1)NC(=O)[C@@H](NC(=O)[C@H](CCCNC(=N)N)NC(=O)CNC)C(C)C)C(=O)N[C@@H](Cc1c[nH]cn1)C(=O)N1CCC[C@H]1C(=O)N[C@H](C)C(=O)O,"angiotensin II receptor type 1, rat","binding, saturation radioligand binding","female rat, liver membranes",,0.00517 µM
CS[C@@H]1O[C@H](COS(=O)(=O)O)[C@@H](OS(=O)(=O)O)[C@H](O[C@@H]2O[C@H](C(=O)O)[C@@H](O[C@@H]3O[C@H](COS(=O)(=O)O)[C@@H](OS(=O)(=O)O)[C@H](O[C@@H]4O[C@H](C(=O)O)[C@@H](OS(=O)(=O)O)[C@H](OS(=O)(=O)O)[C@H]4OS(=O)(=O)O)[C@H]3NC(C)=O)[C@H](OS(=O)(=O)O)[C@H]2OS(=O)(=O)O)[C@H]1NC(C)=O,CXCL8,"ligand displacement, FP",,,7.87 µM
c1ccc(-c2nn[nH]c2-c2ccccc2)cc1,"Troponin C, slow skeletal and cardiac muscles, with cTnI (TNNC1, Human, UniProt P63316, C35S/C84S/T53C)","slowing of Ca2+ dissociation, stopped-flow fluorescence",,"pH 7.0, 15 °C, IAANS-labelled chimera",154 ± 23 µM
Nc1nc2c(ncn2[C@H]2C[C@H](O)[C@@H](COP(=O)(O)OP(=O)(O)C(Cl)(Cl)P(=O)(O)O)O2)c(=O)[nH]1,POLB,"nucleotide binding, substrate, single turnover kinetics",,"37 °C, dG misincorporation opposite A",1400 ± 482 µM
C=CC(=O)Nc1cc(Nc2nccc(-n3ccc4nc(OC)ccc43)n2)c(OC)cc1N(C)CCN(C)C,"EGFR (Homo sapiens, UniProt P00533)","binding, competition with immobilised ligand",,,0.00445 µM
O=C(O)C1CC1C(=O)c1ccc(Cl)c(Cl)c1 (stereo not drawn),"Kynurenine 3-monooxygenase, residues 1-394 (Saccharomyces cerevisiae, UniProt P38169, R83M)","binding, flavin fluorescence",,"25 °C, R83M variant",3.2 ± 0.2 µM
CC[C@H](C)[C@H](NC(=O)[C@H](CC(C)C)NC(=O)[C@H](CCCNC(=N)N)NC(=O)c1ccc(CN2CCN(C)CC2)cc1)C(=O)N[C@@H](Cc1ccccc1)C(N)=O,"Cyclin-A2 (CCNA2, Homo sapiens, UniProt P20248)","binding, tryptophan fluorescence titration",,co-expressed with DnaK-DnaJ-GrpE,> 6.5 µM and 6.59 µM
CC[C@H](C)[C@@H]1NC(=O)[C@H](C)NC(=O)[C@H](C)NC(=O)[C@H]([C@@H](C)O)NC(=O)[C@H](Cc2ccccc2)NC(=O)[C@@H]2CSSC[C@@H]3NC(=O)[C@H](C(C)C)NC(=O)[C@H](CCCCN)NC(=O)[C@H](CO)NC(=O)[C@H](CCCCN)NC(=O)[C@@H]4CSSC[C@H](NC(=O)[C@H](CO)NC(=O)[C@H](CCC(=O)O)NC(=O)CNC(=O)[C@H](CSSC[C@H](NC(=O)CNC1=O)C(=O)N[C@@H](CO)C(=O)N4)NC(=O)[C@@H]1CCCN1C(=O)[C@H](Cc1ccccc1)NC(=O)CNC(=O)[C@H](CC(N)=O)NC(=O)[C@H](CCCCN)NC(=O)[C@H](C)NC3=O)C(=O)N[C@@H](C(C)C)C(=O)N[C@@H](Cc1ccc(O)cc1)C(=O)N[C@@H](CC(C)C)C(=O)N1CCC[C@H]1C(=O)N2,POPC/POPE lipid membrane,"membrane binding, surface plasmon resonance",POPC/POPE 80:20 vesicles,pH 7.4,6.89 ± 0.36 µM
NS(=O)(=O)c1c(F)c(F)c(S(=O)(=O)CCc2ccccc2)c(N[C@H]2CCc3ccccc32)c1F,"CA2 (Homo sapiens, UniProt P00918, A65S/F130A/I91T/L203N/N67K/V134S)",,,pH 7,0.027 µM
C[Si](C)(C)c1cc2c3c(c1)O[C@H](CO)[C@H](O)[C@@H]3OC2,"Galectin-8 (LGALS8, Homo sapiens, UniProt O00214)","cell-free assay, FP",,,330 µM
OC(Cc1cc(-c2ccc(C(O)C(F)(F)F)s2)sc1-c1ccc(-c2sc(-c3ccc(C(O)C(F)(F)F)s3)cc2CC(O)C(F)(F)F)s1)C(F)(F)F (stereo not drawn),"Microtubule-associated protein tau, 0N4R isoform, aggregated (MAPT, Homo sapiens, UniProt P10636)","binding, fluorescence",10% sucrose tau fraction,,0.96 ± 0.2 µM
O=C(NCc1c(F)cccc1Cl)c1csc(-c2n[nH]c3ccccc23)c1,"E3 ubiquitin-protein ligase NEDD4 (Homo sapiens, UniProt P46934)","binding, MST",,,0.0254 µM
C[n+]1cn(C2OC(COP(=O)([O-])OP(=O)(O)OP(=O)(O)OCC3OC(n4cnc5c(=O)[nH]c(N)nc54)C(O)C3O)C(O)C2O)c2nc(NCc3cc(-c4ccccc4)no3)[nH]c(=O)c21 (stereo not drawn),Eif4e,differential scanning fluorimetry,,,2.61 µM
CC[C@H](C)[C@@H]1NC(=O)[C@H](Cc2ccc(O)cc2)NC(=O)[C@@H]2CCCN2C(=O)[C@H](CCCNC(=N)N)NC(=O)[C@@H](Cc2c[nH]c3ccccc23)NC(=O)CSC[C@@H](C(=O)NCC(N)=O)NC(=O)[C@H](C(C)C)NC(=O)[C@H]([C@@H](C)CC)NC(=O)[C@H](CC(C)C)NC(=O)[C@H](CCCNC(=N)N)NC(=O)CNC(=O)[C@H]([C@@H](C)O)NC(=O)[C@H](Cc2c[nH]c3ccccc23)NC(=O)[C@H](CCCNC(=N)N)NC(=O)[C@H](CCC(=O)O)NC1=O,"Plexin-B1 (PLXNB1, Homo sapiens, UniProt O43157)",SPR,,,0.00028 µM
CC[C@H](C)[C@H](NC(=O)[C@H](CC(=O)O)NC(=O)[C@H](CO)NC(C)=O)C(=O)N[C@@H](CSCc1ccccc1)C(=O)N[C@@H](CC(=O)O)C(=O)N[C@@H](Cc1ccccc1)C(=O)N[C@H](C(=O)N[C@@H](CC(C)C)C(=O)N[C@@H](CCCCN)C(=O)N[C@@H](CC(N)=O)C(=O)N[C@@H](Cc1ccc(O)cc1)C(=O)N1CCC[C@H]1C(=O)O)[C@@H](C)CC,"CREB-binding protein, KIX domain (CREBBP, Homo sapiens, UniProt Q92793)","binding, fluorescence polarisation",,,6 ± 0.8 µM
C[C@H](NC(=O)[C@H](Cc1ccccc1)NC(=O)c1ccc(C(F)(F)F)cc1)C(=O)N[C@H](C(=O)N[C@@H](CCCC[N+](C)(C)C)C(=O)N[C@@H](CO)C(N)=O)C1CCCC1,"Chromobox protein homolog 7 (Homo sapiens, UniProt O95931)","binding, ITC",,pH 8,0.22 µM
C[n+]1cn([C@@H]2O[C@H](COP(=O)([S-])OP(=O)(O)OP(=O)(O)OC[C@H]3O[C@@H](n4cnc5c(=O)[nH]c(N)nc54)[C@H](O)[C@@H]3OC(=O)NCCCCCCN)[C@@H](O)[C@H]2O)c2nc(N)nc(O)c21 (mixture of isomers),Eif4e,"cap analogue binding, pyrene fluorescence competition",,20 °C,0.242 ± 0.045 µM
Cc1cn(C2CC(O)C(COP(=O)(O)OP(=O)(O)C(F)P(=O)(O)O)O2)c(=O)[nH]c1=O (mixture of isomers),POLB I260M,"substrate, single turnover kinetics",,37 °C,86.4 ± 46.5 µM

# A few entries again:
SMILES,target,assay,test system,setting,Kd
C=CC(=O)Nc1cc(Nc2nccc(-n3ccc4nc(OC)ccc43)n2)c(OC)cc1N(C)CCN(C)C,"EGFR (Homo sapiens, UniProt P00533)","binding, competition with immobilised ligand",,,0.00445 µM
O=C(O)C1CC1C(=O)c1ccc(Cl)c(Cl)c1 (stereo not drawn),"Kynurenine 3-monooxygenase, residues 1-394 (Saccharomyces cerevisiae, UniProt P38169, R83M)","binding, flavin fluorescence",,"25 °C, R83M variant",3.2 ± 0.2 µM
CC[C@H](C)[C@H](NC(=O)[C@H](CC(C)C)NC(=O)[C@H](CCCNC(=N)N)NC(=O)c1ccc(CN2CCN(C)CC2)cc1)C(=O)N[C@@H](Cc1ccccc1)C(N)=O,"Cyclin-A2 (CCNA2, Homo sapiens, UniProt P20248)","binding, tryptophan fluorescence titration",,co-expressed with DnaK-DnaJ-GrpE,> 6.5 µM and 6.59 µM
